Experimental data gathered from unrelated publications.
Lines come from different studies, so protocols differ. ± marks the error that the study gave. Values after ≈ are worked out from the molar mass of the structure shown.

Compound | tested on | test | test system | setting | scale | quantity | result
Nc1ncnc2c1ncn2C1CC(O)C(COP(=O)(O)OP(=O)(O)C(F)P(=O)(O)O)O1 (mixture of isomers) | truncated human DNA polymerase lambda | dNTP incorporation, single-turnover kinetics | – | B sequence, A·T pair | baseline: non-enzymatic LFER line | delta effective pKa4 | -0.5 pK units
CCC/C(=C\C1=C(F)C(=O)c2ccccc2C1=O)C(=O)N(CC)CC | NF-κB | reporter gene, luciferase reporter | Pa03C | 24 h, basal activity | – | EC50 | 14.9 ± 0.77 µM
COc1cc(CNC(=O)C[C@H](C)CCC=C(C)C)ccc1OCc1cn(-c2cccc(C(F)(F)F)c2)nn1 | MDA-MB-468 breast cancer cells | SRB | – | 10 µM, 48 h | – | growth percent | 64.9%
N[C@@H]1CCN1Cc1ccc(Oc2cccc(F)c2)cc1 | MAO-B | – | – | – | baseline: compound over safinamide | MAO-B inhibition ratio | 10 fold
O=C(Nc1ccc(S(=O)(=O)Nc2nccs2)cc1)c1cc(-c2ccccc2)nc2ccccc12 | GFP-ChREBP | nuclear localization, confocal microscopy | HepG2 | 3 µM, with: glucose | – | inhibition | ~75%
CCC/C(=C\C1=C(OC)C(=O)c2ccccc2C1=O)C(=O)NOC | NF-κB | reporter gene, luciferase reporter | Pa03C | 24 h, basal activity | – | EC50 | 13.4 ± 1.26 µM
Cc1ccc(NC(=O)c2c(C)oc3ccc(O)c(CN4CCCCCC4)c23)cc1 | MYC G-quadruplex DNA | binding, small molecule microarray | – | – | direction not given | composite Z-score | 4.05
Cc1sc2ncn(CC(=O)N3CCCC3)c(=O)c2c1-c1cccc(Br)c1 | NMDA receptor, mouse | single-channel current, outside-out patch | cortical neurons | concentration not given, with: Ca2+ 1.25 mM | – | amplitude 3 area | 6%
CC[C@H](C)[C@H](NC(=O)[C@@H](CCCNC(=N)N)NC(=O)[C@H](CCCNC(=N)N)NC(=O)[C@@H]1CCCN1C(=O)[C@@H]1CCCN1C(=O)[C@H](CCCNC(=N)N)NC(=O)[C@@H]1CCCN1C(=O)[C@H](CCCNC(=N)N)NC(=O)[C@@H]1CCCN1C(=O)[C@H](CC(C)C)NC(=O)[C@H](Cc1ccc(O)cc1)NC(=O)[C@@H]1CCCN1C(=O)[C@@H]1CCCN1C(=O)[C@H](CCCCN)NC(=O)[C@H](CC(=O)O)NC(=O)[C@@H](N)C(C)C)C(=O)N[C@@H](Cc1ccc(O)cc1)C(=O)N[C@@H](CC(N)=O)C(=O)N[C@H](CCCNC(=N)N)C(=O)N[C@@H](CC(N)=O)C(=O)NCC(=O)N1CCC[C@H]1C(=O)N[C@@H](CCCNC(=N)N)C(=O)N[C@@H](CC1CCCCC1)C(=O)N[C@@H](Cc1ccccc1)C(=O)N[C@@H](CCC(N)=O)C(=O)N[C@@H](CC(C)C)C(=O)N[C@@H](CC(=O)O)C(=O)O | 70S ribosome Escherichia coli | ITC | – | pH 7.5, 30 °C | – | Kd | 0.1 ± 0.0009 µM
CC(C)=CCN=C(N)NCCC[C@@H](NC(=O)CCCc1ccc(O)cc1)C(=O)N[C@@H](Cc1ccccc1)C(O)CC(=O)N[C@@H](Cc1ccc(O)cc1)C(=O)O (stereo in doubt) | trypsin | enzyme activity | – | up to 100 µM | – | inhibition | no inhibition
CCCCC/C=C/C(=O)CCc1ccc(O)c(OC)c1 | mouse mAb 1-G12 | antibody binding, indirect competitive ELISA | – | – | – | IC50 | 1.85 µg/mL (≈ 6.69 µM)
C[n+]1c(/C=C/c2ccc(N(c3ccccc3)c3ccccc3)cc2)cc(/C=C2\Sc3ccccc3N2CCCN2CCCC2)c2ccccc21 | c-MYC Pu27 G-quadruplex | binding | – | – | baseline: Pu27 over telomeric G4 | relative fluorescence | 4 to 5 fold
COc1cc(CNC(=O)C[C@H](C)CCC=C(C)C)ccc1OCc1cn(-c2ccccc2)nn1 | HOP-62 | SRB | – | 10 µM, 48 h | – | growth percent | 120%
N=C(CCl)NCCC[C@H](NC(=O)c1ccc(/N=N/c2ccccc2)cc1)c1nc2ccccc2[nH]1 | PAD2 (human) | histone H3 citrullination, western blot | HEK-293T expressing PAD2 | up to 100 µM, 3 h, with: CaCl2 1 mM, ionomycin 10 µM | – | inhibition | inactive
COc1cc(CCC(C)=O)ccc1O | mouse mAb 1-G12 | antibody binding, indirect competitive ELISA | – | with: coating antigen 1-OVA | – | IC50 | 1.02 µg/mL (≈ 5.25 µM)
CNCC(=O)N[C@@H](CCCNC(=N)N)C(=O)N[C@H](C(=O)N[C@@H](Cc1ccc(O)cc1)C(=O)N[C@@H](CCSC)C(=O)N[C@@H](Cc1c[nH]cn1)C(=O)N1CCC[C@H]1C(=O)N[C@@H](CC(C)C)C(=O)O)C(C)C | angiotensin II receptor type 1, human | aldosterone secretion, agonist, EIA | H295R, β-arrestin1 overexpressing | – | – | EC50 | 0.095 ± 0.0125 µM

Repeated from above:
Compound | tested on | test | test system | setting | scale | quantity | result
Cc1sc2ncn(CC(=O)N3CCCC3)c(=O)c2c1-c1cccc(Br)c1 | NMDA receptor, mouse | single-channel current, outside-out patch | cortical neurons | concentration not given, with: Ca2+ 1.25 mM | – | amplitude 3 area | 6%
CC[C@H](C)[C@H](NC(=O)[C@@H](CCCNC(=N)N)NC(=O)[C@H](CCCNC(=N)N)NC(=O)[C@@H]1CCCN1C(=O)[C@@H]1CCCN1C(=O)[C@H](CCCNC(=N)N)NC(=O)[C@@H]1CCCN1C(=O)[C@H](CCCNC(=N)N)NC(=O)[C@@H]1CCCN1C(=O)[C@H](CC(C)C)NC(=O)[C@H](Cc1ccc(O)cc1)NC(=O)[C@@H]1CCCN1C(=O)[C@@H]1CCCN1C(=O)[C@H](CCCCN)NC(=O)[C@H](CC(=O)O)NC(=O)[C@@H](N)C(C)C)C(=O)N[C@@H](Cc1ccc(O)cc1)C(=O)N[C@@H](CC(N)=O)C(=O)N[C@H](CCCNC(=N)N)C(=O)N[C@@H](CC(N)=O)C(=O)NCC(=O)N1CCC[C@H]1C(=O)N[C@@H](CCCNC(=N)N)C(=O)N[C@@H](CC1CCCCC1)C(=O)N[C@@H](Cc1ccccc1)C(=O)N[C@@H](CCC(N)=O)C(=O)N[C@@H](CC(C)C)C(=O)N[C@@H](CC(=O)O)C(=O)O | 70S ribosome Escherichia coli | ITC | – | pH 7.5, 30 °C | – | Kd | 0.1 ± 0.0009 µM
